Results collected from several papers.
Compare with care: the assays were run in different laboratories. ± gives the spread as reported.
Cell line: Vero

O=c1[nH]c(=O)n([C@@H]2O[C@H](COCc3ccccc3)[C@@H](OCc3ccccc3)[C@H](OCc3ccccc3)[C@H]2I)cc1I — CC50 (MTT; DMEM with 10% FBS; 72 h): > 50 µM
CC(C)CCCCCCCCC[C@@H]1CC(=O)N[C@@H](CCC(=O)O)C(=O)N[C@@H](CC(C)C)C(=O)N[C@H](CC(C)C)C(=O)N[C@@H](C(C)C)C(=O)N[C@@H](CC(=O)O)C(=O)N[C@H](CC(C)C)C(=O)N[C@@H](CC(C)C)C(=O)O1 — CC50 (MTT; 24 h): 0.61 ± 0.1 µg/mL
CC(C)(C)[C@H](NC(=O)C(F)(F)F)C(=O)N1C[C@H]2[C@@H]([C@H]1C(=O)N[C@H](C#N)C[C@@H]1CCNC1=O)C2(C)C — CC50: > 100 µM
CC(C)NCC(O)COc1cccc2[nH]ccc12 (stereo not drawn) — CC50 (MTT; 72 h): 20 to 60 µM
CCCCCCCCCC(=O)N[C@@H](Cc1c[nH]c2ccccc12)C(=O)N[C@H](CC(N)=O)C(=O)N[C@@H](CC(=O)O)C(=O)N[C@@H]1C(=O)NCC(=O)N[C@@H](CCCN)C(=O)N[C@@H](CC(=O)O)C(=O)N[C@H](C)C(=O)N[C@@H](CC(=O)O)C(=O)NCC(=O)N[C@H](CO)C(=O)N[C@@H]([C@H](C)CC(=O)O)C(=O)N[C@@H](CC(=O)c2ccccc2N)C(=O)O[C@@H]1C — CC50 (MTT; 24 h): 0.74 ± 0.1 µg/mL
CC(C)(C)NCC(O)COc1cccc2c1CCC(=O)N2 (stereo not drawn) — CC50 (MTT; 72 h): 133 to 400 µM
Cc1cn([C@@H]2O[C@H](COCc3ccccc3)[C@@H](OCc3ccccc3)[C@H](OCc3ccccc3)[C@H]2I)c(=O)[nH]c1=O — CC50 (MTT; DMEM with 10% FBS; 72 h): > 50 µM
CC(C)NCC(O)COc1cccc2ccccc12 (stereo not drawn) — CC50 (MTT; 72 h): 86.1 µM
CC(=O)OC[C@H]1O[C@@H](n2ccc(=O)[nH]c2=O)[C@H](I)[C@@H](OC(C)=O)[C@@H]1OC(C)=O — CC50 (MTT; DMEM with 10% FBS; 72 h): > 50 µM
CCCCCCC#Cc1cncc(-c2nnc(Sc3ccc([N+](=O)[O-])cc3[N+](=O)[O-])n2C)c1 — CC50 (72 h): 28 ± 0.951 µM
O=c1ccn([C@@H]2O[C@H](COCc3ccccc3)[C@@H](OCc3ccccc3)[C@H](OCc3ccccc3)[C@H]2I)c(=O)[nH]1 — CC50 (MTT; DMEM with 10% FBS; 72 h): > 50 µM
CCCCCCCCCCCCCCCC(=O)N[C@H]1C[C@@H](O)[C@@H](O)NC(=O)[C@@H]2[C@@H](O)[C@@H](C)CN2C(=O)[C@H]([C@@H](C)O)NC(=O)[C@H]([C@H](O)[C@@H](O)c2ccc(O)cc2)NC(=O)[C@@H]2C[C@@H](O)CN2C(=O)[C@H]([C@@H](C)O)NC1=O — CC50 (MTT; 24 h): 61 ± 4 µg/mL

A few entries again:
CC(C)NCC(O)COc1cccc2[nH]ccc12 (stereo not drawn) — CC50 (MTT; 72 h): 20 to 60 µM
